Results of several laboratories.
Each numbered part is a random draw from the data of one study; scales do not carry over between parts.
Chain of UniProt Q99759 (whole entry, looked up): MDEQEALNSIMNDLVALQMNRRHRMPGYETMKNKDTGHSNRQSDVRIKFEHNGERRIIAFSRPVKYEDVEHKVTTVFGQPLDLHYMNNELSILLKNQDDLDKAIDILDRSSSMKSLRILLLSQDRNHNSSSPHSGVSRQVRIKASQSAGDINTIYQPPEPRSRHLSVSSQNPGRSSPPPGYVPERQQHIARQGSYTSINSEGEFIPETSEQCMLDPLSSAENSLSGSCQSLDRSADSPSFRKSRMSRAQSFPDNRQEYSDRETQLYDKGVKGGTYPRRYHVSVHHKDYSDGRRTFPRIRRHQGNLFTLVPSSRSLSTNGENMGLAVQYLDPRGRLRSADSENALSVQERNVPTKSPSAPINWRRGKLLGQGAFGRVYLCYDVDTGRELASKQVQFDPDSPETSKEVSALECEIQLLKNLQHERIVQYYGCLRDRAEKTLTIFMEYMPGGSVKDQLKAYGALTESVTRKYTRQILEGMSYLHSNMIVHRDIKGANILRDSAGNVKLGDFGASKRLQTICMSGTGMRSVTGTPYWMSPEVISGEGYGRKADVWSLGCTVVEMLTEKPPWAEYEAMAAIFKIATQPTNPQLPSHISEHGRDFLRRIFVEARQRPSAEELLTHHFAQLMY
Chain of UniProt Q13557 (whole entry, looked up): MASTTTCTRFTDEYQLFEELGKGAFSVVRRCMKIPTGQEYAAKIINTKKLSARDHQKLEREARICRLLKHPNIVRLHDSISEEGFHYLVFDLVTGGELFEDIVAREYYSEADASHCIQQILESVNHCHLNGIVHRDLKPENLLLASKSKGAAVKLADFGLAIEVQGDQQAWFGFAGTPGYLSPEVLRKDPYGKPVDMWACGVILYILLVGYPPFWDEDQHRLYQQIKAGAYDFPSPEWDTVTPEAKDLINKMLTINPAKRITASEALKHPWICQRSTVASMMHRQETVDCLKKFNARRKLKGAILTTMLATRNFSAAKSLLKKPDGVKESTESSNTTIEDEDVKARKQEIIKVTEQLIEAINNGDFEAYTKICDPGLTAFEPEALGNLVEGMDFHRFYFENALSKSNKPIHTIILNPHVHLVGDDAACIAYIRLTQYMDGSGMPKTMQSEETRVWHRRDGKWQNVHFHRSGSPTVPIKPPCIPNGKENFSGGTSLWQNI
Chain of UniProt P36897 (whole entry, looked up): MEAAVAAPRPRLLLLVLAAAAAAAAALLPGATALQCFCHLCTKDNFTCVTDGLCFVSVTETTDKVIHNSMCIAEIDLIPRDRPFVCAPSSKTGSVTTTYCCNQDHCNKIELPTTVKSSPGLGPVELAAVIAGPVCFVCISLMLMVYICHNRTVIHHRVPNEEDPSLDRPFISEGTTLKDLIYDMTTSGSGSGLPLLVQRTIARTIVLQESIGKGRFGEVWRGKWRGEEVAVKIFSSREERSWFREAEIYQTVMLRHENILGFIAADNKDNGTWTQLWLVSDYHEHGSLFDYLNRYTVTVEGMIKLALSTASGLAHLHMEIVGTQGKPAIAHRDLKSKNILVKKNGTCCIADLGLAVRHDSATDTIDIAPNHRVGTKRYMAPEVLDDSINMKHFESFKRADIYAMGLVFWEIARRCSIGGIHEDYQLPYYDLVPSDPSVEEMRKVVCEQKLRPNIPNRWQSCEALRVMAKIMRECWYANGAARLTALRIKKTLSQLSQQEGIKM
Chain of UniProt Q9UIK4 (whole entry, looked up): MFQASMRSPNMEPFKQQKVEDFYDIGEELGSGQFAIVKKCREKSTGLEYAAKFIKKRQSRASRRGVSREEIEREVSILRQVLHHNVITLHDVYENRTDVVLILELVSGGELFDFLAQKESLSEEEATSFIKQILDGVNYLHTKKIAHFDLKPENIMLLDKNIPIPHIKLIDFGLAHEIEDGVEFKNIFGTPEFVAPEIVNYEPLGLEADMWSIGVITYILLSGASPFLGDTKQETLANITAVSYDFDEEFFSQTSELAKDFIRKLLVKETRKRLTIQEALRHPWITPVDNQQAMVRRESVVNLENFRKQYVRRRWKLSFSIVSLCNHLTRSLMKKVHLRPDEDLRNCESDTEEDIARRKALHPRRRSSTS
Chain of UniProt Q00535 (whole entry, looked up): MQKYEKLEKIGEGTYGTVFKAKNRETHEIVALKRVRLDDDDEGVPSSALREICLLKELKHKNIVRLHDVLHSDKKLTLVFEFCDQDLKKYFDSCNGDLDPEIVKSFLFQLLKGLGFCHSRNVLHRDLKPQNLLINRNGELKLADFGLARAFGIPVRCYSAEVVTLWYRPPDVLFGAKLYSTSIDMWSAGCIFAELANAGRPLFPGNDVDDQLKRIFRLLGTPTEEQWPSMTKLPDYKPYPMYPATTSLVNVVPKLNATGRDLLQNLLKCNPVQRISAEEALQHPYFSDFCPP
Chain of UniProt O94804 (whole entry, looked up): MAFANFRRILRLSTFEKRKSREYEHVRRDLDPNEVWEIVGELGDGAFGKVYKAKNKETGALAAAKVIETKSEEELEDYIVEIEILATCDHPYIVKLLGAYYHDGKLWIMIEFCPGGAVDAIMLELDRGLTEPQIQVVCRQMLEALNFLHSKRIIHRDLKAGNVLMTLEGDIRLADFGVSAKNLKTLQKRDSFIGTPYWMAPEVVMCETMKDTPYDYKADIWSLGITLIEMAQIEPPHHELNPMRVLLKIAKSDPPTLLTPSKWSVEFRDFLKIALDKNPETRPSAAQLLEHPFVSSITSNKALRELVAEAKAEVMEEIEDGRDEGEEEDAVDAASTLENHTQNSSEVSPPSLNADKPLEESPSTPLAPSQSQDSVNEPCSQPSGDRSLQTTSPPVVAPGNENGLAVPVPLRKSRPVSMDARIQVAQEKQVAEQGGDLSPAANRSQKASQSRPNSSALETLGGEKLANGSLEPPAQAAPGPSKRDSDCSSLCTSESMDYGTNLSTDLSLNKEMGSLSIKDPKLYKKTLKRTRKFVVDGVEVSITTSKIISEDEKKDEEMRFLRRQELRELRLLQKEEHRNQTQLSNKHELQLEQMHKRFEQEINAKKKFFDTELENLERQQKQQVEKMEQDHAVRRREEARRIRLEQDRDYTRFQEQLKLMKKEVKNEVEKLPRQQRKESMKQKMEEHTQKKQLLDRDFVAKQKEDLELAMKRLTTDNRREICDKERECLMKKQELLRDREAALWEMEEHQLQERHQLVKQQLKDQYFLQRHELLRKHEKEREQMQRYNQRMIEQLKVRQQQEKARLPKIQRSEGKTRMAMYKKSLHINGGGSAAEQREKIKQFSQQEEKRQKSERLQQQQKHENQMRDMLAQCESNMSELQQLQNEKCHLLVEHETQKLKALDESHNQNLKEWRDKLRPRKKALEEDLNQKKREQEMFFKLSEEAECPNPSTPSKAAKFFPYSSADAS
Chain of UniProt P35626 (whole entry, looked up): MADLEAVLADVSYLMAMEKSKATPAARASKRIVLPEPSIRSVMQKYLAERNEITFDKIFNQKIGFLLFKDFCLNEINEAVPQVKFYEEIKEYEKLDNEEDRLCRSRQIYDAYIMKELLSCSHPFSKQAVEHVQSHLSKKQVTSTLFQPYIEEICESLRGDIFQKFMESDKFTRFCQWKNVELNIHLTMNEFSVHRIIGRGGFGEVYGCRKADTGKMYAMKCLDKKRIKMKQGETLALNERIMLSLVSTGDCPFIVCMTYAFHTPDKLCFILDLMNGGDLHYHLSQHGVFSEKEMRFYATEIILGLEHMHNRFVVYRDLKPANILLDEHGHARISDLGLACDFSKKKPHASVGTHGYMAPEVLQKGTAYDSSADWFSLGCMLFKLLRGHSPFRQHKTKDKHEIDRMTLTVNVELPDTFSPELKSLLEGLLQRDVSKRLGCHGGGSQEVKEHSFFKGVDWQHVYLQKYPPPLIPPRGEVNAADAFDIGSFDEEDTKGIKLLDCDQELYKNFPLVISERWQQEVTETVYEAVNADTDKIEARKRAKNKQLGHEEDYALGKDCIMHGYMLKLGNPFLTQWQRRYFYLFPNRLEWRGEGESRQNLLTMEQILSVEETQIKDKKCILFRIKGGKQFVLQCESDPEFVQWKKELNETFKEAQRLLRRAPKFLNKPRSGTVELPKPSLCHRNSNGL
Chain of UniProt P11802 (whole entry, looked up): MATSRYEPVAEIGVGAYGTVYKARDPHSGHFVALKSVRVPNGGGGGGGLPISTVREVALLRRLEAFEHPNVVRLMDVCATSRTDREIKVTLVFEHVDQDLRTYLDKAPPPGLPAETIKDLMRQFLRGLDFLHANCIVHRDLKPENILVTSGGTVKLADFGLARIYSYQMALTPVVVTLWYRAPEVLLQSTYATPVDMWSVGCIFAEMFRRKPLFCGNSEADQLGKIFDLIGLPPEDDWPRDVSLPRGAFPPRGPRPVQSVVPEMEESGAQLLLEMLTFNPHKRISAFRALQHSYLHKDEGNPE
Chain of UniProt Q00537 (whole entry, looked up): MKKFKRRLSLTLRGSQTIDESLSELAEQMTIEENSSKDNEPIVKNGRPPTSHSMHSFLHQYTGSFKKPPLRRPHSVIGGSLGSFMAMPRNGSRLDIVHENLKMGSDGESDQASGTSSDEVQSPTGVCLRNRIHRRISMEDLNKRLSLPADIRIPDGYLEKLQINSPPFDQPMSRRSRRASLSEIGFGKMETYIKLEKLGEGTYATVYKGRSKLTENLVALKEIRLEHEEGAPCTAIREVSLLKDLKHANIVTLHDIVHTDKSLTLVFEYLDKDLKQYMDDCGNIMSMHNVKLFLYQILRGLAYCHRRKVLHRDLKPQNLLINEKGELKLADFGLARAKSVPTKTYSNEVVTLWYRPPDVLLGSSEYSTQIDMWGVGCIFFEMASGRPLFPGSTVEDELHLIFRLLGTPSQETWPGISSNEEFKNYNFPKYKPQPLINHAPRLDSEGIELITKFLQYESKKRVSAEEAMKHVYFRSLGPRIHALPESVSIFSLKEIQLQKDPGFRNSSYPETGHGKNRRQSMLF

Block 1
Structure (SMILES): CC(C)c1nn(-c2c(Cl)cccc2Cl)c2nc(Cc3ccc(OCCO)cc3)[nH]c(=O)c12
Read-out: enzyme activity
Mode: inhibitor
Tested at: 0.5 µM
Relative to: control
Mitogen-activated protein kinase 9 (MAPK9, Homo sapiens, UniProt P45984) — remaining activity: 96.5%.
Calcium/calmodulin-dependent protein kinase type II subunit delta (CAMK2D, Homo sapiens, UniProt Q13557) — remaining activity: 85.7%.
Mitogen-activated protein kinase kinase kinase 3 (MAP3K3, Homo sapiens, UniProt Q99759) — remaining activity: 110%.
Cyclin-dependent kinase 5, with p25 (CDK5, Homo sapiens, UniProt Q00535) — remaining activity: 2.54%.
For G protein-coupled receptor kinase 3 (GRK3, Homo sapiens, UniProt P35626): remaining activity read 87.9%.
It gave 96.6% for remaining activity (Serine/threonine-protein kinase 10 (STK10, Homo sapiens, UniProt O94804)).
The remaining activity was 88.3% (Death-associated protein kinase 2 (DAPK2, Homo sapiens, UniProt Q9UIK4)).
For Cyclin-dependent kinase 4, with cyclin D1 (CDK4, Homo sapiens, UniProt P11802): remaining activity read 86.8%.
The remaining activity was 98% (TGF-beta receptor type-1 (TGFBR1, Homo sapiens, UniProt P36897)).

Block 2
SMILES: CC(=O)N1CCC(c2ccc(C(=O)NC3=NCCN3)cc2C(F)(F)F)CC1
Read-out: cell-free assay
Technique: competition with immobilised ligand
Tested at: 1 µM
For Cyclin-dependent kinase 17 (CDK17, Homo sapiens, UniProt Q00537): remaining binding read 89%.
For Cyclin-dependent kinase 13 (CDK13, Homo sapiens, UniProt Q14004): remaining binding read 100%.
The remaining binding was 100% (Serine/threonine-protein kinase Nek5 (NEK5, Homo sapiens, UniProt Q6P3R8)).

Block 3
Target: Prothrombin, mature alpha-thrombin (F2, Homo sapiens, UniProt P00734)
Technique: aptamer microarray, sandwich
Form: DNA with 2'F-ANA
Medium: in vitro
Tested at: 200 nM
Notes: whole 15-mer aptamer, many near background
With: Cy3 exosite-II aptamer, 400 nM
Reading: higher = stronger binding
Sequence: GGTTGGTGTGGTTGG
Under “mean fluorescence intensity”, `2'F-ANA at 2 3 8 12 13 14` is recorded as 439 a.u.
For `2'F-ANA at 1 3 6 7 9 11`, “mean fluorescence intensity” read 209 a.u.
`2'F-ANA at 1 2 7 9 11 13 15`: “mean fluorescence intensity” 112 a.u.
Under “mean fluorescence intensity”, `2'F-ANA at 3 5 6 10 11 13 14` is recorded as 48.8 a.u.
Under “mean fluorescence intensity”, `2'F-ANA at 2 3 4 5 7 10 12 13` is recorded as 54 a.u.
Under “mean fluorescence intensity”, `2'F-ANA at 2 6 7 8 9 10 11 14` is recorded as 86 a.u.
`2'F-ANA at 1 2 3 4 5 6 8 10 11 14 15`: “mean fluorescence intensity” 53.9 a.u.
`2'F-ANA at 1 3 4 8 9 10 11 12 13 14` — result for “mean fluorescence intensity”: 61.7 a.u.

Block 4
Target: Histone acetyltransferase KAT6A, both winged helices, GST fusion (KAT6A, Homo sapiens, UniProt Q92794, residues 1-181)
Technique: protein binding microarray
Form: double-stranded DNA, one strand shown
Medium: in vitro
Tested at: not given
Notes: 8-mer, flanks averaged, mean of 2 arrays, mostly near background
Relative to: not given
Reading: higher = stronger binding
Residues (chain): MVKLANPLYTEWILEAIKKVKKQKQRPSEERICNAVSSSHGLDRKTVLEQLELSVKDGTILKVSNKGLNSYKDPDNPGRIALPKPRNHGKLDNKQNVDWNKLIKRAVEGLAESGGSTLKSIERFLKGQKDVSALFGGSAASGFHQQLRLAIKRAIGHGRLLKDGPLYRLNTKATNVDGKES
For `ACCATATA`, the E-score was -0.137.
For `CGCGCCGA`, the E-score was 0.319.
With `AAAATCAA` the E-score was 0.0141.
With `CTCCCCGA` the E-score was 0.0922.
For `CAACCCGC`, the E-score was 0.262.
The E-score of `ACCCAAGT` is reported as -0.234.
With `TATGCGGA` the E-score was 0.178.
`ATTCGCAC` gave an E-score of 0.065.

Repeated from above (block 1):
Mitogen-activated protein kinase 9 (MAPK9, Homo sapiens, UniProt P45984) — remaining activity: 96.5%.
Calcium/calmodulin-dependent protein kinase type II subunit delta (CAMK2D, Homo sapiens, UniProt Q13557) — remaining activity: 85.7%.
Mitogen-activated protein kinase kinase kinase 3 (MAP3K3, Homo sapiens, UniProt Q99759) — remaining activity: 110%.
